{"data": "Assay results gathered from unrelated publications", "KPC-2": "KPC-2 (Klebsiella pneumoniae, UniProt Q9F663)", "MAD2L2 R124A": "MAD2L2 R124A (Homo sapiens, UniProt Q9UI95)", "IFT81": "IFT81 (Chlamydomonas reinhardtii, UniProt Q68RJ5)", "HCRTR2 del254-292/I293E/K294R/L160H/M161K/Q254E": "Orexin receptor type 2 (HCRTR2, Homo sapiens, UniProt O43614, del254-292/I293E/K294R/L160H/M161K/Q254E)", "TEM-1 β-lactamase": "TEM-1 β-lactamase (UniProt P62593)", "B1": "Mena EVH1 1-113 (Homo sapiens, UniProt Q8N8S7); chain MSEQSICQARAAVMVYDDANKKWVPAGGSTGFSRVHIYHHTGNNTFRVVGRKIQDHQVVINCAIPKGLKYNQATQTFHQWRDARQVYGLNFGSKEDANVFASAMMHALEVLNS", "B2": "FAM222A 151-300 (Homo sapiens, UniProt Q5U5X8); sequence looked up; chain PSTLGPLAYPKPPEAPAPPPGLPAAATAASVIPLPGRGLPLPPSNLPSIHSLLYQLNQQCQAPGAAPPACQGMAIPHPSPAKHGPVPSFPSMAYSAAAGLPDCRKGTELGQGATQALTLAGAAKPAGYADSGLDYLLWPQKPPPPPPQPL", "note": "Compare with care: the assays were run in different laboratories. Several values in a cell are separate wells, animals, samples, runs or records. ± marks the error that the study gave."}
{"Substance": "CAGGIFHSLALKC (BLIP-II cyclic peptide (Streptomyces); C-terminal amide, cyclic, disulfide)", "tested on": "KPC-2", "assay": "BLI", "test system": "peptide", "endpoint": "koff", "value": "0.00031 s⁻¹"}
{"Substance": "SKLIGDPNLEFVAMPALAPPAS (RAN RBM, 166-187)", "tested on": "MAD2L2 R124A", "assay": "competition with FAM-REV3 peptide, competitor, fluorescence polarisation", "test system": "peptide", "endpoint": "IC50", "value": "83000 ± 6000 nM"}
{"Substance": "rpoN (Escherichia coli, UniProt P24255)", "tested on": "rpoC (Escherichia coli, UniProt P0A8T7)", "assay": "cryo-EM", "endpoint": "binding", "value": "binds"}
{"Substance": "pertussis toxin", "tested on": "GPR37 (Homo sapiens, UniProt O15354)", "assay": "osteocalcin-induced calcium increase, inhibitor", "test system": "HEK293-GCaMP6s cells transfected with GPR37", "conditions": "concentration not given, added: osteocalcin after pretreatment", "endpoint": "calcium increase", "value": "inhibited"}
{"Substance": "B1 (Mena EVH1 1-113)", "tested on": "ActA (Listeria monocytogenes)", "assay": "intrinsic tryptophan fluorescence", "endpoint": "Kd", "value": "13500 nM"}
{"Substance": "IFT25 (Chlamydomonas reinhardtii, UniProt B8LIX8)", "tested on": "IFT81", "assay": "cross-linking MS", "conditions": "hits only", "endpoint": "interaction screen", "value": "cross-linked"}
{"Substance": "Neuromedin B", "tested on": "HCRTR2 del254-292/I293E/K294R/L160H/M161K/Q254E", "assay": "sensor fluorescence, fluorescence imaging", "test system": "HEK293T", "conditions": "concentration not given, unit not given", "scale": "reference: baseline", "endpoint": "ΔF/F0", "value": "2.49 and 0.914 and 0.0112 and -0.767 and 3.25 and -0.679 and 3.38 and 2.27"}
{"Substance": "CHLWFTDGVLC (BLIP cyclic peptide (Streptomyces clavuligerus); C-terminal amide, cyclic, disulfide)", "tested on": "TEM-1 β-lactamase", "assay": "BLI", "test system": "peptide", "endpoint": "Kd", "value": "450 ± 18 nM"}
{"Substance": "DLDSDDEY (TELO2 488-494 (Homo sapiens); pS491)", "tested on": "PIH1D1 51-180 R163A (Homo sapiens, UniProt Q9NWS0)", "assay": "ITC", "test system": "peptide", "endpoint": "Kd", "value": "112000 nM"}
{"Substance": "PPBP (Homo sapiens)", "tested on": "ORF74 whole (human herpesvirus 8, UniProt Q98146)", "assay": "chemotaxis, Transwell", "test system": "Jurkat.ORF74", "endpoint": "pEC50", "value": 7.91}
{"Substance": "PRPRPRPRPRPRPRPRPRPRPRPRPRPRPRPRPRPRPRPRPRPRPRPRPRPRPRPRPRPR (poly-PR 30 repeats)", "tested on": "G3BP1 1-411 (Homo sapiens, UniProt Q13283)", "assay": "BLI", "test system": "peptide", "endpoint": "Kd", "value": "8.12 nM"}
{"Substance": "Nociceptin", "tested on": "HCRTR2 del254-292/I293E/K294R/L160H/M161K/Q254E", "assay": "sensor fluorescence, fluorescence imaging", "test system": "HEK293T", "conditions": "concentration not given, unit not given", "scale": "reference: baseline", "endpoint": "ΔF/F0", "value": "0.354 and 0.512 and -1.61 and 0.592 and -1.82 and -1.13 and 1.06 and -0.553"}
{"Substance": "GRGRGRGRGRGRGRGRGRGRGRGRGRGRGRGRGRGRGRGRGRGRGRGRGRGRGRGRGRGR (poly-GR 30 repeats)", "tested on": "G3BP1 (Homo sapiens, UniProt Q13283)", "assay": "BLI", "test system": "peptide", "conditions": "added: RNA", "endpoint": "Kd", "value": "0.01 ± 0.008 nM"}
{"Substance": "brain natriuretic peptide", "tested on": "hly (Staphylococcus aureus, UniProt P09616)", "assay": "nanopore sensing", "conditions": "asymmetric electrolyte", "endpoint": "dynamic range", "value": "7 orders of magnitude"}
{"Substance": "CDYYAYATFGFTSAAADAKVC (BLIP cyclic peptide (Streptomyces clavuligerus); C-terminal amide, cyclic, disulfide)", "tested on": "KPC-2", "assay": "BLI", "test system": "peptide", "endpoint": "koff", "value": "0.00096 s⁻¹"}
{"Substance": "melanin-concentrating hormone", "tested on": "HCRTR2 del254-292/I293E/K294R/L160H/M161K/Q254E", "assay": "sensor fluorescence, fluorescence imaging", "test system": "HEK293T", "conditions": "concentration not given, unit not given", "scale": "reference: baseline", "endpoint": "ΔF/F0", "value": "-3.42 and 0.621 and 9.08 and -4.35 and -1.35 and -1.79 and -1.15 and -8.52"}
{"Substance": "PLMSPPSREEIMATLLDHD (REV3L RBM1, 1880-1898 (Homo sapiens))", "tested on": "MAD2L2 R124A", "assay": "competition with FAM-REV3 peptide, competitor, fluorescence polarisation", "test system": "peptide", "endpoint": "IC50", "value": "9100 ± 500 nM"}
{"Substance": "orexin-B", "tested on": "HCRTR2 del254-292/I293E/K294R/L160H/M161K/Q254E", "assay": "receptor activation kinetics", "test system": "human cells", "endpoint": "activation time constant tau", "value": "509 ms and 403 ms and 255 ms and 502 ms"}
{"Substance": "B2 (FAM222A 151-300)", "tested on": "MAVS 1-513 (Homo sapiens, UniProt Q7Z434)", "assay": "pull-down", "endpoint": "binding", "value": "binds"}
{"Substance": "IFT27 (Chlamydomonas reinhardtii, UniProt A8HN58)", "tested on": "IFT81", "assay": "cross-linking MS", "conditions": "hits only", "endpoint": "interaction screen", "value": "cross-linked"}
{"Substance": "neuropeptide FF", "tested on": "HCRTR2 del254-292/I293E/K294R/L160H/M161K/Q254E", "assay": "sensor fluorescence, fluorescence imaging", "test system": "HEK293T", "conditions": "concentration not given, unit not given", "scale": "reference: baseline", "endpoint": "ΔF/F0", "value": "2.2 and -0.267 and -4.31 and 0.971 and 0.728 and 0.286 and 1.28 and -1.48"}
{"Substance": "E2F1 fragment V88E", "tested on": "CCNF/SKP1 1-546 (Homo sapiens)", "assay": "fluorescence polarisation", "scale": "reference: wild-type peptide, higher = weaker binding", "endpoint": "affinity decrease", "value": "30 fold"}
{"Substance": "FBPA (Plasmodium falciparum, UniProt Q7KQL9)", "tested on": "MTRAP C-terminal cytoplasmic tail (Plasmodium falciparum)", "assay": "SPR", "endpoint": "Kd", "value": "91 nM"}
{"Substance": "CAIAGGYFHGLALKGC (BLIP-II cyclic peptide (Streptomyces); C-terminal amide, cyclic, disulfide)", "tested on": "TEM-1 β-lactamase", "assay": "BLI", "test system": "peptide", "endpoint": "koff", "value": "0.00048 s⁻¹"}
{"Substance": "spn N-terminal deletion (Staphylococcus aureus)", "tested on": "MPO mature, native (Homo sapiens, UniProt P05164)", "assay": "SPR", "endpoint": "kon", "value": "208000 M⁻¹ s⁻¹"}
{"Substance": "CDGYSSTGFYRGSAHLWFC (MBP/BLIP cyclic peptide (Streptomyces clavuligerus); cyclic)", "tested on": "TEM-1 β-lactamase", "assay": "SPR", "test system": "peptide", "endpoint": "koff", "value": "0.00072 s⁻¹"}
{"Substance": "EDKKIVIMPCKCAPSRQLVQVWLQAKE (REV3L RBM2, 1988-2014 (Homo sapiens))", "tested on": "MAD2L2 R124A", "assay": "competition with FAM-REV3 peptide, competitor, fluorescence polarisation", "test system": "peptide", "endpoint": "IC50", "value": "1500 ± 30 nM"}
{"Substance": "Neurotensin", "tested on": "HCRTR2 del254-292/I293E/K294R/L160H/M161K/Q254E", "assay": "sensor fluorescence, fluorescence imaging", "test system": "HEK293T", "conditions": "concentration not given, unit not given", "scale": "reference: baseline", "endpoint": "ΔF/F0", "value": "2.47 and 1.56 and 2.49 and 5.8 and 1.12 and 1.7 and 6.93 and -0.967"}
{"Substance": "CWSEYYPAYC (BLIP cyclic peptide (Streptomyces clavuligerus); C-terminal amide, cyclic, disulfide)", "tested on": "TEM-1 β-lactamase", "assay": "BLI", "test system": "peptide", "endpoint": "Kd", "value": "1200 ± 27 nM"}
{"Substance": "insulin human", "assay": "measured: CPS1 mRNA", "test system": "EcoHIV-infected mouse, brain", "conditions": "i.p., dose not given", "scale": "reference: PBS", "endpoint": "fold change", "value": 0.635}
{"Substance": "IFT81 (Chlamydomonas reinhardtii, UniProt Q68RJ5)", "tested on": "IFT74 (Chlamydomonas reinhardtii, UniProt Q6RCE1)", "assay": "cross-linking MS", "conditions": "hits only", "endpoint": "interaction screen", "value": "cross-linked"}
{"Substance": "CXCL6 (Homo sapiens)", "tested on": "ORF74, C-terminal LgBiT fusion (human herpesvirus 8, UniProt Q98146)", "assay": "β-arrestin1 recruitment to ORF74, NanoBiT", "endpoint": "pEC50", "value": 8.18}
{"note": "For quick reference, copied from above:"}
{"Substance": "EDKKIVIMPCKCAPSRQLVQVWLQAKE (REV3L RBM2, 1988-2014 (Homo sapiens))", "tested on": "MAD2L2 R124A", "assay": "competition with FAM-REV3 peptide, competitor, fluorescence polarisation", "test system": "peptide", "endpoint": "IC50", "value": "1500 ± 30 nM"}
{"Substance": "Neurotensin", "tested on": "HCRTR2 del254-292/I293E/K294R/L160H/M161K/Q254E", "assay": "sensor fluorescence, fluorescence imaging", "test system": "HEK293T", "conditions": "concentration not given, unit not given", "scale": "reference: baseline", "endpoint": "ΔF/F0", "value": "2.47 and 1.56 and 2.49 and 5.8 and 1.12 and 1.7 and 6.93 and -0.967"}
{"Substance": "CWSEYYPAYC (BLIP cyclic peptide (Streptomyces clavuligerus); C-terminal amide, cyclic, disulfide)", "tested on": "TEM-1 β-lactamase", "assay": "BLI", "test system": "peptide", "endpoint": "Kd", "value": "1200 ± 27 nM"}
